Measured values from different studies.
Each line is one published result; not all experiments were run side by side. Several values in a cell are separate wells, animals, samples, runs or records. Numbers after ± are the reported error.

| Compound | test | system | conditions | tissue uptake |
| --- | --- | --- | --- | --- |
| COc1ccc(Nc2nc(Nc3ccc(OCCOCCOCC[18F])cc3)ncc2Br)cc1 | – | ICR mice, S180 tumour-bearing, tumor | intravenous, 370 kBq, 60 min | 2.97 ± 0.47 %ID/g |
| O=C(NCC1OC2CCC=CCCC2O1)c1ccc([18F])nc1 (stereo not drawn) | – | female BALB/c nude mice, LS174T tumour, kidneys | intravenous, 60 min, together with: unmodified CC49 24 h before | 2.2 ± 0.7 %ID/g |
| Cc1cc(C)n(CCN(CCN)CCCCCCNC(=O)[C@@H](N)Cc2c[nH]cn2)n1.[99Tc+].[C-]#[O+].[C-]#[O+].[C-]#[O+] | – | BALB/c nude mice, A549 xenograft, muscle | intravenous, 24 h | 0.07 ± 0.01 %IA/g |
| N#C[C@@H]1CCCN1C(=O)CNC(=O)c1ccnc2ccc(OCCCN3CCN(C(=O)CCc4ccc(O)c(CN5CCN6CC(=O)[O][Al-]([18F])([O]C(=O)C5)[O]c5ccc(CCC(=O)N7CCN(CCCOc8ccc9nccc(C(=O)NCC(=O)N%10CCC[C@H]%10C#N)c9c8)CC7)cc5C6)c4)CC3)cc12 (stereo partly drawn) | – | BALB/c nude mice, U-87 MG xenograft, lung | 1 h | 6 ± 1.29 %ID/g |
| COc1ccc(Nc2nc(Nc3ccc(OCCOCC[18F])cc3)ncc2Br)cc1 | – | ICR mice, S180 tumour-bearing, liver | intravenous, 370 kBq, 5 min | 3.52 ± 0.49 %ID/g |
| CCCC[C@H](NC(=O)CCCCCCCNC(=O)CN1CCN(CC(=O)O)CCN(CC(=O)O)CC1)C(=O)N[C@H]1CC(=O)NCCCC[C@@H](C(N)=O)NC(=O)[C@H](Cc2c[nH]c3ccccc23)NC(=O)[C@H](CCCNC(=N)N)NC(=O)[C@@H](Cc2ccccc2)NC(=O)[C@H](Cc2c[nH]cn2)NC1=O [fluorine-18 labelled] | – | C57 mice B16-F10 melanoma, stomach | intravenous, 0.37 MBq, 1 h | 1.61 ± 0.54 %ID/g |
| N#C[C@@H]1CCCN1C(=O)CNC(=O)c1ccnc2ccc(OCCCN3CCN(C(=O)CCc4ccc5c(c4)CN4CCN6CC(=O)[O][68Ga-]([O]C(=O)C4)([O]5)[O]c4ccc(CCC(=O)N5CCN(CCCOc7ccc8nccc(C(=O)NCC(=O)N9CCC[C@H]9C#N)c8c7)CC5)cc4C6)CC3)cc12 | – | BALB/c nude mice, U-87 MG xenograft, gallbladder | 1 h, blocked 60 min, together with: DOTA-FAPI-04 40 nmol co-injected | 163 ± 40.4 %ID/g |
| O=C(O)CCCOc1ccc([18F])cc1-c1cc(-c2ccccc2C(F)(F)F)n(-c2ccccc2)n1 | – | mice, bladder and urine | intravenous, 30 min | 0.08 ± 0.04 %ID/g |
| N#C[C@@H]1CCCN1C(=O)CNC(=O)c1ccnc2ccc(OCCCN3CCN(C(=O)CCc4ccc5c(c4)CN4CCN(Cc6cc(CCC(=O)O)ccc6O)CC(=O)[O][Al-]([18F])([O]C(=O)C4)[O]5)CC3)cc12 (stereo partly drawn) | – | BALB/c nude mice, U-87 MG xenograft, spleen | 2 h | 0.47 ± 0.21 %ID/g |
| CCCC[C@H](NC(=O)CNC(=O)CNC(=O)[C@H](CCCCNC(=O)[C@H](CCN)NC(=O)C(C)c1ccc(CC(C)C)cc1)NC(=O)CN1CCN(CC(=O)O)CCN(CC(=O)O)CCN(CC(=O)O)CC1)C(=O)N[C@H]1CC(=O)NCCCC[C@@H](C(N)=O)NC(=O)[C@H](Cc2c[nH]c3ccccc23)NC(=O)[C@H](CCCNC(=N)N)NC(=O)[C@@H](Cc2ccccc2)NC(=O)[C@H](Cc2c[nH]cn2)NC1=O (stereo partly drawn) [lutetium-177 labelled] | – | C57 mice, tumour-bearing, kidneys | 2 h | 65.6 ± 0.94 %ID/g |
| CC(C)C[C@H](NC(=O)[C@@H](CCCCNC(=O)[C@@H](Cc1ccccc1)NC(=O)CCCCCCCNC(=O)CN1CCN(CC(=O)O)CCN(CC(=O)O)CCN(CC(=O)O)CC1)NC(=O)[C@H](Cc1ccc(O)cc1)NC(=O)[C@H](CO)NC(=O)[C@H](Cc1c[nH]c2ccccc12)NC(=O)[C@H](Cc1c[nH]cn1)NC(=O)[C@@H]1CCC(=O)N1)C(=O)N[C@@H](CCCNC(=N)N)C(=O)N1CCC[C@H]1C(=O)NCC(N)=O [indium-111 labelled] | biodistribution | male athymic nude mice, DU-145 prostate cancer xenograft, liver | intravenous, 0.037 MBq, 4 h post-injection | 0.31 ± 0.12 %ID/g |
| O=C(NCC1OC2CCC=CCCC2O1)c1ccc(COCCOCCOCC[18F])cc1 (stereo not drawn) | – | healthy female BALB/c nude mice, skin | intravenous, 7.4 MBq per mouse, 120 min | 1.8 ± 0.1 %ID/g |
| O=C([O-])CN1CCN(CC(=O)[O-])CCN(CC(=O)NC[C@H]2CC[C@H](C(=O)N[C@H](Cc3cnc4ccccc4c3)C(=O)NCCCC[C@H](NC(=O)N[C@@H](CCC(=O)O)C(=O)O)C(=O)O)CC2)CCN(CC(=O)[O-])CC1.[64Cu+2] | ex vivo gamma counting | 22Rv1 tumour-bearing mice, stomach | intravenous, 0.74 MBq, 6 h post-injection | 12.9 %ID/g |
| CCCC[C@H](NC(=O)COCCOCCNC(=O)CN1CCN(CC(=O)O)CCN(CC(=O)O)CC1)C(=O)N[C@H]1CC(=O)NCCCC[C@@H](C(N)=O)NC(=O)[C@H](Cc2c[nH]c3ccccc23)NC(=O)[C@H](CCCNC(=N)N)NC(=O)[C@@H](Cc2ccccc2)NC(=O)[C@H](Cc2c[nH]cn2)NC1=O [fluorine-18 labelled] | – | C57 mice, B16/F10 melanoma, muscle | intravenous, 1 h, together with: NDP-MSH 10 µg | 0.47 ± 0.18 %ID/g |
| COc1ccc2c(c1)C(C)(C)C(/C=C/C1=C(Oc3ccc(C(=O)NCCCCOc4cc(CN(Cc5ccccn5)Cc5ccccn5)cc(CN(Cc5ccccn5)Cc5ccccn5)c4)cc3)C(=C/C=C3/N(CCCCS(=O)(=O)[O-])c4ccc(OC)cc4C3(C)C)CCC1)=[N+]2CCCCS(=O)(=O)[O-].O=[N+]([O-])[O-].O=[N+]([O-])[O-].[99Tc+].[C-]#[O+].[C-]#[O+].[C-]#[O+].[Zn+2] | – | BALB/c mice, healthy, large intestine and caecum | intravenous, 0.74 MBq, 12 h post-injection | 2.99 %ID/g and 2.79 %ID/g and 4.45 %ID/g and 6.89 %ID/g |

Excerpt of the above:
| Compound | test | system | conditions | tissue uptake |
| --- | --- | --- | --- | --- |
| COc1ccc(Nc2nc(Nc3ccc(OCCOCC[18F])cc3)ncc2Br)cc1 | – | ICR mice, S180 tumour-bearing, liver | intravenous, 370 kBq, 5 min | 3.52 ± 0.49 %ID/g |
